Experimental data gathered from unrelated publications.
Lines come from different studies, so protocols differ. Several values in a cell are separate wells, animals, samples, runs or records. Numbers after ± are the reported error.
Cell line: HepG2

Nc1ccccc1C(=O)OCC#CCOC(=O)c1ccccc1N gave an IC50 of greater than 50 µM (MTT; 72 h).
With O=C(O)c1cccc(CP(=O)(O)O)n1 the EC50 was greater than 250 µg/mL (lysosome integrity, neutral red uptake; 24 h, without 10% FBS).
For CC1CCN(C(=O)c2cccc(NC(=O)Nc3ccc(F)cc3F)c2)CC1, the viability was 58.9% (cell growth or viability, MTT; 100 µM).
With NC(=O)c1cc(C2=CCOC2)ccc1OCCc1cccc(F)c1 the selectivity ratio was > 3 and ~3 (3 (unit not given); relative to: CC50 glucose over CC50 galactose).
The IC50 of C#CCOc1c(/C=N/NC(=O)CCl)cc2c3c1C(C)(C)CCN3CCC2(C)C is reported as 61.8 µM (cell growth or viability, ATP luminescence; 24 h).
O[Si](CCCN1CCCCC1)(c1ccc(F)cc1)C1CCCCC1 (centres unmarked) has an IC50 of 34.8 µM (cell growth or viability; 72 h).
CC1CCN(C(=O)c2cccc(NC(=O)Nc3ccccc3)c2)CC1 gave a viability of 74.9% (cell growth or viability, MTT; 100 µM).
For C#Cc1ccc(N2CCOCC2)c(/C=N/NC(=O)CCl)c1, the IC50 was 1.5 µM (cell growth or viability, ATP luminescence; 24 h).
NC(=O)c1cc(-c2ccco2)ccc1OCCc1cccc(F)c1 gave a CC50 of 41 ± 25 µM (3 (unit not given), human).
The IC50 of C#Cc1ccc(/C=C/C=N/NC(=O)CCl)cc1 is reported as 12.1 µM (cell growth or viability, ATP luminescence; 24 h).
The CC50 of NC(=O)c1cc(-c2ccsc2)ccc1OCCc1cc(F)cc(F)c1 is reported as 28 ± 15 µM (3 (unit not given), glucose medium).
For c1ccc2c(c1)nc(CNCC13CC4CC(CC(C4)C1)C3)n2CC1CC1, the CC50 was 67.3 µg/mL (cell growth or viability, XTT).
COc1ccccc1-c1ccc(OCCc2cccc(F)c2)c(C(N)=O)c1 has a selectivity ratio of greater than 2 (3 (unit not given); relative to: CC50 glucose over CC50 galactose).
For CC[C@H](C)[C@H](NC(=O)[C@H](CCCN)NC(=O)[C@H](CCCNC(=N)N)NC(=O)[C@@H]1CCCN1C(=O)[C@@H]1CCCN1C(=O)[C@H](CCCNC(=N)N)NC(=O)[C@@H]1CCCN1C(=O)[C@H](CCCNC(=N)N)NC(=O)[C@@H]1CCCN1C(=O)[C@H](CC(C)C)NC(=O)[C@H](Cc1ccc(O)cc1)NC(=O)[C@@H]1CCCN1C(=O)[C@@H]1CCCN1C(=O)[C@H](CCCCN)NC(=O)[C@H](CC(=O)O)NC(=O)[C@@H](N)C(C)C)C(=O)N[C@@H](Cc1ccc(O)cc1)C(=O)N[C@@H](CC(N)=O)C(=O)N[C@@H](CCCN)C(N)=O, viability read “not toxic” (MTT; concentration not given, DMEM/F12 with FBS).

Some of these lines once more:
The IC50 of C#Cc1ccc(/C=C/C=N/NC(=O)CCl)cc1 is reported as 12.1 µM (cell growth or viability, ATP luminescence; 24 h).
The CC50 of NC(=O)c1cc(-c2ccsc2)ccc1OCCc1cc(F)cc(F)c1 is reported as 28 ± 15 µM (3 (unit not given), glucose medium).
